Assay results gathered from unrelated publications.
Protocols differ between the studies behind these lines.
Medium: plasma

`O=C(CCc1ccc(CNC(C(=O)OC2CCCC2)C2CCCCC2)cn1)NO` (stereo not shown) gave a Cmax of 103 ng/mL (human; oral, 20 mg once daily, day 1, geometric mean).
Under “Cmax dose ratio”, `CCOc1ccc(Cc2cc(C3OC(SC)C(O)C(O)C3OC3OC(C(=O)O)C(O)C(O)C3O)ccc2Cl)cc1` (stereo not shown) is recorded as about 2.4 fold (human; oral, 400 mg once daily, sotagliflozin, day 8; relative to: 200 mg dose).
`O=C(O)c1cccc(S(=O)(=O)Nc2ccccc2)c1` — result for “Cmax metabolic ratio”: 0.071 (human, severe liver dysfunction; intravenous, 400 mg/m^2 belinostat, cycle 1 day -7, geometric mean; relative to: metabolite over belinostat).
Under “Cmax geometric mean ratio”, `CN[C@@H](CCOc1cccc2ccccc12)c1ccccc1` is recorded as 0.879 (healthy male human; oral, dose not given, with: dapoxetine with udenafil; relative to: combination over dapoxetine alone).
For `Cn1c(=O)oc2ccc(-c3ccc(CC(C#N)NC(=O)C4CNCCCO4)c(F)c3)cc21` (stereo not shown), the Cmax was 247 ng/mL (human volunteers; 40 mg single dose, fasted, geometric mean).
For `CN1CCC[C@]1(C)/C=C/S(=O)(=O)NC(=O)Nc1c2c(cc3c1CCC3)CCC2`, “Cmax after first dose” read 2000 ng/mL (human; oral, 12.5 mg twice daily, day 14, multiple ascending dose).
`CONC(=O)/C=C/c1cccc(S(=O)(=O)Nc2ccccc2)c1`: “Cmax metabolic ratio” 0.112 (human, mild liver dysfunction; intravenous, 400 mg/m^2 belinostat, cycle 1 day -7, geometric mean; relative to: metabolite over belinostat).
For `CCc1cc(Nc2nc(-c3ccc(-n4cnc(C)c4)c(F)c3)cs2)c(C)cc1C`, the Cmax was 496 ng/mL (human, both sexes; oral, 200 mg, day 1, multiple dose, geometric mean).
For `NC(=O)/C=C/c1cccc(S(=O)(=O)Nc2ccccc2)c1`, “Cmax metabolic ratio” read 0.0759 (human, severe liver dysfunction; intravenous, 400 mg/m^2 belinostat, cycle 1 day -7, geometric mean; relative to: metabolite over belinostat).
For `CCc1c2c(nc3ccc(O)cc13)-c1cc3c(c(=O)n1C2)COC(=O)[C@]3(O)CC`, the Cmax was 30 ng/mL (human patients; intravenous, 12 mg/m2 of parent drug).

Some of these lines once more:
For `CN1CCC[C@]1(C)/C=C/S(=O)(=O)NC(=O)Nc1c2c(cc3c1CCC3)CCC2`, “Cmax after first dose” read 2000 ng/mL (human; oral, 12.5 mg twice daily, day 14, multiple ascending dose).
